Assay results gathered from unrelated publications.
Each numbered part is a random draw from the data of one study; scales do not carry over between parts.

Set 1 — method: RNA Bind-n-Seq; molecule type: RNA; sample: in vitro; tested at: 365 nM; baseline: no-protein control; reading: higher = stronger binding; measurement: RBNS enrichment (R)
Target: RNA binding protein fox-1 homolog 2, RRM domain, GST-SBP tag (RBFOX2, Homo sapiens, UniProt O43251-10, residues 100-194)
Setting: natural RNA segment, single round, ends assumed
Target sequence (chain): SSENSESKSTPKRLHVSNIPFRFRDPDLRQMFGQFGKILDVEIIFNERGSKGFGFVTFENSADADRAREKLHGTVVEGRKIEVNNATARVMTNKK
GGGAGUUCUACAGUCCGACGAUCACCUUAAGAAGGCACAUAUAUAAUAGAGAUCAGGAAGAAAUGAAGAAUUCUAUUUUUGCUGAAUAUGCCAAAGAAUCAAAAGCCAUGGCUAUUAAGACAGAUGUGGAUGUUGGAAUUCUCGGGUGCCAA: 0.272
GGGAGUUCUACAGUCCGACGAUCUGGGCUCAAGCGAUUCUCUCUUCCUUGGCCUCUGGAGUAGACUAAAUGUGUUAGUCUUUGAAUGGAAAACAACUAUUUUCUCAUCAUUGGGUCAAUAUUGACUGAUCAGUUGGAAUUCUCGGGUGCCAA: 0.373
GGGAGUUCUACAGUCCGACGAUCGGGGAGGGGAAGUUCUGAGAAUGGAGUCAUUCUUAGUGUUCAGGUGCUAAAGGUUGUUCUCCUGGGGGAACAGAGUGACUGAAACUGGCUUGUUUGCUACAAGCCCUACCUGGAAUUCUCGGGUGCCAA: 0.533
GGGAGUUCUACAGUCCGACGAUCUAUUACAAGUACUUGGAUUGUUCCUUAGUCAUUAAAUAGGAUAUAAAUUAGGUUGAGAAGGGGGUAUCACAACCUCAAGAAAAGUGCCACUUAAAGCAUUGCUUUUAGGUUGGAAUUCUCGGGUGCCAA: 0.64
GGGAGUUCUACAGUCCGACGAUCCUGCCUUGACCCGAGGAGGCAUCUCACUGGUUCCGUACUUGUGUGUGCCCUACGCCUCACUGCUGGGGCCCUGGACCCAGACCCAGGCAGGAGGGCCGACGGGUGCCUCGUGGAAUUCUCGGGUGCCAA: 0.494
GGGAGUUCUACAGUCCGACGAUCUUUCACCAUGGCAAACCUAAAUGCAGUCAGUCACAAACCAGCCUGGGGCCUUCCUGGCUUUGGGAGUAAGAAAUGGGCCUCAGCCCCGCGGAUCAACCAGGCAGAGUUCUUGGAAUUCUCGGGUGCCAA: 0.358
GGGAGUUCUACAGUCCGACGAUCGUGAGUGCUCGAGUGUAUGUGCCCAUUCCUCAUAGGUCUCUUGGCUGCUCUCAAGGUUAAUUUUAACUUGGAGACUUUCAGCUCCUUGAAAGACUAUUAAUCCCUCCAGCUGGAAUUCUCGGGUGCCAA: 0.617
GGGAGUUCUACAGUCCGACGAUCAUCUAAGUGCCUAGCCCUUCCACCCACCCGCCGUCCACCUCGUCCAUCGGGGACACAGAGUGGCCAGGGCACCCCACCCUUGUCUCCGUGUACCCUAGCUCCCCAUCACUUGGAAUUCUCGGGUGCCAA: 0.257
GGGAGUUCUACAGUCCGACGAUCGAAACUGUUUUUAUAGUUUUAAUCAGAGCUAUGCAUUUCAUACAGCUUUUUAAUUUACAAUGAAACAAAGAAACAAAUUCCUUUGACCAAAUUGCUUGUCUAUAGUUGUCUGGAAUUCUCGGGUGCCAA: 0.403

Set 2 — method: RNA Bind-n-Seq; molecule type: RNA; sample: in vitro; tested at: 100 nM; baseline: input RNA pool; reading: higher = stronger binding; measurement: bound/input enrichment
Target: RING finger protein unkempt homolog, zinc fingers 1-6, SBP tag (UNK, Homo sapiens, UniProt Q9C0B0, residues 30-357)
Chain of UniProt Q9C0B0 (30-357, looked up): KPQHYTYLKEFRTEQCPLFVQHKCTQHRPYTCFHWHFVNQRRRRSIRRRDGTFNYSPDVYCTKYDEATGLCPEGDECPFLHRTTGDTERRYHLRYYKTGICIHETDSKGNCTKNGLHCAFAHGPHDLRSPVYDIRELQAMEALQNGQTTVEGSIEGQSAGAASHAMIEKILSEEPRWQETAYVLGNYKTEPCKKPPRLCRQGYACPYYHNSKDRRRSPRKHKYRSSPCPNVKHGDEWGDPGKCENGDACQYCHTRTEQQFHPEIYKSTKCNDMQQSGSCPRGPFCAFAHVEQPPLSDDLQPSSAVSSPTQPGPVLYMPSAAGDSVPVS
Setting: RNA with constant flanks, vertebrate orthologous sites, ends assumed
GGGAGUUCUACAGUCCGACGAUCCUACUAUAAACAACUCAGGGCAGUAUUCUCGGUAUCCUUACAGUAACCUAAAUCAGGGAUUAGUUAACAAUACAGGGAUGAAUCAAAAUUUAGGCCUUACAAAUAACACUCCAAUGAAUCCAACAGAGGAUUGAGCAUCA: 1.34 ratio
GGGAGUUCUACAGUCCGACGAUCUUGUUUUGUACAGGGCAUUCUCUGUACAAAUUUGUUGUGGUUAUAAAACAAUUAGCAAAACAGCUUACAUUUGUAUUUAUUUUCUAUUCCAUACCUCUUCCCCAUGUUUUUUCCCCUCAACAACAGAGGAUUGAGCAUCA: 0.673 ratio
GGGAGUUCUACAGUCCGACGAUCCUGUGAGGGUCUACUGACCACUCACUGUUAUAUCUGGGUAUAUCUGUAAACACUUUUGUCCCUAGUCUUUCUUGUACAAUUGAUGUUCUUCAAAAUCGUUAAUGUAUGACAGGGCUUAUGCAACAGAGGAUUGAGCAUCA: 0.287 ratio
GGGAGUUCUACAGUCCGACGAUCUCAGUCUUCCACAUAGGGUUGGCCUCAAAUCUAUAGGAUUUACGACAAAUAUAUUAUAUCUAGUUAAGUUGAGUUUAAUAUUUUUUUAUUAGCCUGUAAAUAAAGAUGGCAUCUUCUACACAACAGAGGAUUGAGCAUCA: 1.39 ratio
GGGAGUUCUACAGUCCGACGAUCCUCCCCGUUAUCCCGAAAGUAGAAUUUUUUAAAAUUGUGUUGCCACCACUUGUAAAAAUUUCACAAUAUUAGAAUGACACUAAUGAAGUAAGAAAUUUUUGUUCAUUAUUUUACAAACCACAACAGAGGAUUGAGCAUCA: 0.623 ratio
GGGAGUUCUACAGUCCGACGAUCCCGAAAGGCCAAAUUCCCUCCUCCCUUCUACUGCUUCUACCAACUGGAAGCACAGAAAACUAGAAGUUCAUUUAUUUUGUUUUUUAAAAAAAUACACUGAUUUAACAUCCGAUAGGAAUGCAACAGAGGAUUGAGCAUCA: 1.82 ratio
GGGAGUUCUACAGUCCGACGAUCGAUACUGAAUAGUAUUAAGCAUUUUCGUCUUCCUUUACCUUUGAUCCCCUUCUUAAUAUCCAGUCUACUUUUUAAAAUUUCAGACUUCACUGCUCUUUGAAUUGAUAAUUCCAAUUUUCACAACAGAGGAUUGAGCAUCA: 0.361 ratio
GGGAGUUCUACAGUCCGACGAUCGAUCUGGACCUCGGAGCAGAGCUAUGGAGCUGACUAAAGUAAAGCAGACCUGUAAACUUGUAGCCAUAGGUAGUUGCACAACGACAGUAUCAGCAGAGCAGCUGAGCUAAAGUAUUUAUACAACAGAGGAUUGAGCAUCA: 0.372 ratio

Set 3 — method: RNA Bind-n-Seq; molecule type: RNA; sample: in vitro; tested at: 200 nM; setting: whole 134-nt RNA, ends assumed; added: 150 mM KCl; baseline: input library; reading: higher = stronger binding; measurement: log2 enrichment
Target: Fragile X messenger ribonucleoprotein 1, C-terminal low-complexity region (Fmr1, Mus musculus, UniProt P35922)
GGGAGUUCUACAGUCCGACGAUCCACAGACAACACGCACCCACACAGACACAGAGGGAAGGGGUUGGGAUGGGGACAGGGUGCACAGCAGGGCGGGGUAGGUCCCCAGCCCCUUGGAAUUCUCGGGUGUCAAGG: 1.32
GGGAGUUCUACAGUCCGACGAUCUCCUCAAGUCCUGUGCUACACAUCGUAUGUACCGAAUCGGUGGGGUGGUGGGAAAGUAUUAUGUUACGCCGUUCGGAUCUGCACUUCCAGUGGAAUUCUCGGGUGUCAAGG: 0.543
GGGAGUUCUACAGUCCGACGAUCGCAGGAAGUAAAAACAAAUGGAAAUGCAUCGGAUAGUGGCAGGGGUGGGGGUUGCUAAGGAAAGGGUGGGAUGGGAGUGGGUAAAGAGUUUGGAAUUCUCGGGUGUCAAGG: 0.355
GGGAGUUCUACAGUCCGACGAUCUCAAGUCCUGUGCUACACAUCGUAUGUACCGAAUCGGAAAGGUUUGGAAAAAGGAAAGUAUUAUGUUACGCCGUUCGGAUCUGCACUUCCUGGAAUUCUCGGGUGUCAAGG: -0.7
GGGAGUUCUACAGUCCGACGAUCUGGCCCUGGUGGCAUGGGGGGAGGAAGAGGUGGCCUCAUGGAUCGUGGUGGUCCCGGUGGAAUGUUCAGAGGUGGCCGUGGUGGAGACAGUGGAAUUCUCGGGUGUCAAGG: 0.257
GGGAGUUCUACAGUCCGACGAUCCACAGACAACACGCACCCACACAGACACAGAGGGAAGGGGUUGGGAUGGGGACAGGGUGCACAGCAGGAAAGGGUAGGACCCCAGCCCCUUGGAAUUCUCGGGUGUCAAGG: 1.09
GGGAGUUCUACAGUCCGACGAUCUCAAGUCCUGUGCUACACAUCGUAUGUACCGAAUCGGAAAAAGGUUUGGUUUGGAAAGUAUUAUGUUACGCCGUUCGGAUCUGCACUUCCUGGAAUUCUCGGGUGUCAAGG: -0.814
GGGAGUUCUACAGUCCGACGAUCCUCAAGUCCUGUGCUACACAUCGUAUGUACCGAAUCGGUUGGGUUGGGGUUGGGAAAGUAUUAUGUUACGCCGUUCGGAUCUGCACUUCCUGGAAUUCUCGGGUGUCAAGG: 0.87
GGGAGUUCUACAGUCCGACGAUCCAAGUCCUGUGCUACACAUCGUAUGUACCGAAUCGGGGUUUUGGUUUUGGUUUUGGAAAGUAUUAUGUUACGCCGUUCGGAUCUGCACUUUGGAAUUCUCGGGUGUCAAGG: -0.513
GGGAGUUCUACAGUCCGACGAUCCUCAAGUCCUGUGCUACACAUCGUAUGUACCGAAUCGGGAAGGAAGGGAAGGGAAAGUAUUAUGUUACGCCGUUCGGAUCUGCACUUCCAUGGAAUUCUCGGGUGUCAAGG: 0.196

Set 4 — method: universal PBM; molecule type: double-stranded DNA, one strand shown; sample: in vitro; tested at: not given; reading: higher = stronger binding; measurement: E-score
Target: Sal-like protein 4, full length isoform B (SALL4, Homo sapiens, UniProt Q9UJQ4-2, residues 1-616)
Setting: 8-mer, flanks averaged, mean of replicates
AAGAGTAC: 0.0365
GACTCTAA: 0.0218
CGATTGCG: -0.202
CTCGGTTA: -0.146
CGACTTAA: 0.267
CCAGTGGC: -0.363
ACACCAGG: -0.135
CAATTTCC: 0.0646
GAAATCGC: -0.119
AAAGAGCC: -0.224
AGTGGGTG: 0.00475
GTAAGGAC: -0.13
ACTCGACA: -0.0778
GAAATAGC: 0.0243
CTGATGGA: -0.147
CAGCCCGA: -0.376
CGGCTTAC: -0.183
GCCGGGCA: -0.326
CGCTTAGA: -0.18
